Assay results gathered from unrelated publications.
Protocols differ between the studies behind these lines. ± marks the error that the study gave.
CALCR: Calcitonin receptor (CALCR, Homo sapiens, UniProt P30988)
Sequence of UniProt P30988 (whole entry, looked up): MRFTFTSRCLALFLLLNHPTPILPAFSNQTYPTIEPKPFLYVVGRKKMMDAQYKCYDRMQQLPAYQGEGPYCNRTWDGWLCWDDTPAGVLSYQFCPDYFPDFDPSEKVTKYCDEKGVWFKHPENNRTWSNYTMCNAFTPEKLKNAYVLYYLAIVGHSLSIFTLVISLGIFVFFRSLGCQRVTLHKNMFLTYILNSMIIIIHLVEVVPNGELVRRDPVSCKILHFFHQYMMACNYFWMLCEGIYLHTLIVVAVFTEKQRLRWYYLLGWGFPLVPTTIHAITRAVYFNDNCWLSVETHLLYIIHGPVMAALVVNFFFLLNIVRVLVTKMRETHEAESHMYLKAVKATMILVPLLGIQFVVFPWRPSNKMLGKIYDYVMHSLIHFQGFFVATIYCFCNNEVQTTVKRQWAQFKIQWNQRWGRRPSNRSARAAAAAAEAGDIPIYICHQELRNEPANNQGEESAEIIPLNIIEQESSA
VHL/BRD9: VHL/BRD9 (Homo sapiens, UniProt P40337+Q9H8M2)
Sequence of UniProt Q9H8M2 (whole entry, looked up): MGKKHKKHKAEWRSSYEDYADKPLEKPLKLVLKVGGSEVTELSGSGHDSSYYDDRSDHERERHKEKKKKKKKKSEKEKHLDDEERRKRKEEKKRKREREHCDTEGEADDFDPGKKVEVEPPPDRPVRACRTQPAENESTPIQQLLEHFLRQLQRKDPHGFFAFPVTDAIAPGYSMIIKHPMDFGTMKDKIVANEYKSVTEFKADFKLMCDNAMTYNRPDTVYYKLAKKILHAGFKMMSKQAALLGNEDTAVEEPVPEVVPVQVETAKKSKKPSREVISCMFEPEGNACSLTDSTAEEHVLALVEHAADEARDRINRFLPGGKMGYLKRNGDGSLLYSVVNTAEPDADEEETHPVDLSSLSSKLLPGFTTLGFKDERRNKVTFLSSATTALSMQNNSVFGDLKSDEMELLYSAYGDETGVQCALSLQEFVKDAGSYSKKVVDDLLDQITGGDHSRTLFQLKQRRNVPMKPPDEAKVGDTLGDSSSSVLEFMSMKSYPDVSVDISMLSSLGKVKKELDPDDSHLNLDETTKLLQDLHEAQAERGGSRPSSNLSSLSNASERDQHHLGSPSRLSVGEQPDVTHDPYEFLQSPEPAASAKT
Sequence of UniProt P40337 (whole entry, looked up): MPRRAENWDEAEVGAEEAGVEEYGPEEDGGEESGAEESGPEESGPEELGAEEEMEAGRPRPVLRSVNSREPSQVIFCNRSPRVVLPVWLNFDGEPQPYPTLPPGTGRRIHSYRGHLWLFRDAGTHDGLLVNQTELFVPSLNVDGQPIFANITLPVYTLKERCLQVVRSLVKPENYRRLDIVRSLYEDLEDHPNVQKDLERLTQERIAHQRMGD
VHL/BRD9 with Elongin B/C: VHL/BRD9, with Elongin B/C (Homo sapiens, UniProt P40337+Q9H8M2)
Sequence of UniProt P11229 (whole entry, looked up): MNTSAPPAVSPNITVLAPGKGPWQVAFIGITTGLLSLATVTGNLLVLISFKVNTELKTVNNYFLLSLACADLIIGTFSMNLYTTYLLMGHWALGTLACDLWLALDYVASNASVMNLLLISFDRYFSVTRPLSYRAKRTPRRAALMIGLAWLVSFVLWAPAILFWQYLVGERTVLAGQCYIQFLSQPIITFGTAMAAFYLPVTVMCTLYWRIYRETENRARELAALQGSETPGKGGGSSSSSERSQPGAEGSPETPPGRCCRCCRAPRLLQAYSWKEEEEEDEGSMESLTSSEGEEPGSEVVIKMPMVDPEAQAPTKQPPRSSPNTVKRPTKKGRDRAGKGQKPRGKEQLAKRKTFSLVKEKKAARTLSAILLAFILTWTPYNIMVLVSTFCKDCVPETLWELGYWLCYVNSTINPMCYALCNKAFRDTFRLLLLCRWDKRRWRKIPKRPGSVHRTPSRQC
Sequence of UniProt P49286 (whole entry, looked up): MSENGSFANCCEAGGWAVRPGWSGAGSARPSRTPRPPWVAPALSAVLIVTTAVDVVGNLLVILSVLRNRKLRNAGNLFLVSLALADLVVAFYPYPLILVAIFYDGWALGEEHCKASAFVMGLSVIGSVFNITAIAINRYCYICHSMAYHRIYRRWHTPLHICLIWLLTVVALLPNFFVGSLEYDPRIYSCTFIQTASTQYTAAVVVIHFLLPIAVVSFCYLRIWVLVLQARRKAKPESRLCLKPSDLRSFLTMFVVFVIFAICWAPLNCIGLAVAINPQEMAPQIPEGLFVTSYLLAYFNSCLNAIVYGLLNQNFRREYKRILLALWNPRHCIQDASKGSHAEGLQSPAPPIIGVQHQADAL
Sequence of UniProt P32214 (whole entry, looked up): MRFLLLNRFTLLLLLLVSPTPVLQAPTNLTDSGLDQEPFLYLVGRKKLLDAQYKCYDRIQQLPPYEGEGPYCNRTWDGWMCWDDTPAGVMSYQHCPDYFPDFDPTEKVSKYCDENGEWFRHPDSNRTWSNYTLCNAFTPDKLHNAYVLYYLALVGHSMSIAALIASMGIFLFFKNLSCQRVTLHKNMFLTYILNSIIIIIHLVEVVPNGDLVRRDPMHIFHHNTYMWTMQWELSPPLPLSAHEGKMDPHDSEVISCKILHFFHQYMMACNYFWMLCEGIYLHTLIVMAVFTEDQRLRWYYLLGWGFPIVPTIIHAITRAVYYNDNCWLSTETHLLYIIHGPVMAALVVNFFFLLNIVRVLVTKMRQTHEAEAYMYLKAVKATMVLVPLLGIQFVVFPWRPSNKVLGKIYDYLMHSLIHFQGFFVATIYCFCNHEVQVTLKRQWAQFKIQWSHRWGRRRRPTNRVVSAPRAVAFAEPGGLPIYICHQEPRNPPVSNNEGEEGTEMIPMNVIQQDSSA
Sequence of UniProt Q04206 (whole entry, looked up): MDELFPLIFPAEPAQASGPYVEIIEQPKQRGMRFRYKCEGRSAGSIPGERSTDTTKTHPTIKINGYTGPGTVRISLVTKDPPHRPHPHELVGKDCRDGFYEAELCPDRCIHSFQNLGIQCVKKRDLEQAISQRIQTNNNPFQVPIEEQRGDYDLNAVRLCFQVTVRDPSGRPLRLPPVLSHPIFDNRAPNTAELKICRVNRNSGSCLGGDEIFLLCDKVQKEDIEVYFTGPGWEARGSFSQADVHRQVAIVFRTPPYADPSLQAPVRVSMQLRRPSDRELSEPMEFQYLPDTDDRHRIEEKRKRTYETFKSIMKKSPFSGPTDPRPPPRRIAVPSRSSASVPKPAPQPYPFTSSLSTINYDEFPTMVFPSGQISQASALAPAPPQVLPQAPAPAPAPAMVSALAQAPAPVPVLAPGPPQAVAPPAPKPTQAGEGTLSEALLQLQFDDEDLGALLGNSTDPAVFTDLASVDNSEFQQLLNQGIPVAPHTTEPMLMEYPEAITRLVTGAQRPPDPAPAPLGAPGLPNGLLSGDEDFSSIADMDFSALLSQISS
Sequence of UniProt Q92847 (whole entry, unmodified, looked up): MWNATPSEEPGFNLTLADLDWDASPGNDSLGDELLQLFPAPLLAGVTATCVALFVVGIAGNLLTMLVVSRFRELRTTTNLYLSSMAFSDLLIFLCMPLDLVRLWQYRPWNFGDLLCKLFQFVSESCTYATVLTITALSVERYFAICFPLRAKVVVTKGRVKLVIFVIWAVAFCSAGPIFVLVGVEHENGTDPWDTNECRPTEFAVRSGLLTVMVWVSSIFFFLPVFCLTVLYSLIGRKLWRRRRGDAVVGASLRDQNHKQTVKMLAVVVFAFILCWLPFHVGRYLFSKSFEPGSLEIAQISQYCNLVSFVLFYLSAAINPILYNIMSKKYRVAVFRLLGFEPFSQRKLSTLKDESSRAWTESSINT
Sequence of UniProt P25103 (whole entry, unmodified, looked up): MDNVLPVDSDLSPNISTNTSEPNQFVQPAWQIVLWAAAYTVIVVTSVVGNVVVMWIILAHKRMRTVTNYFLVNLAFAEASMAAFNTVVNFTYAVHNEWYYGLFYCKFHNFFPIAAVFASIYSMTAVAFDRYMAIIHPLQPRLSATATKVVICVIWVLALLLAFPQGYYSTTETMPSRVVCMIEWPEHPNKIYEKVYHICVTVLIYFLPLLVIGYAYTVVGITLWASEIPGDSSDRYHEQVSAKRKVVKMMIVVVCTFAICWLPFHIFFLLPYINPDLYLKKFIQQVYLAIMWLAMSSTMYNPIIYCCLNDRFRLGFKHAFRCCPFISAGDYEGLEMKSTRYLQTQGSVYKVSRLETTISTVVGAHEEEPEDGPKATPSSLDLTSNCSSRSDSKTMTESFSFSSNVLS
Sequence of UniProt P61981 (whole entry, looked up): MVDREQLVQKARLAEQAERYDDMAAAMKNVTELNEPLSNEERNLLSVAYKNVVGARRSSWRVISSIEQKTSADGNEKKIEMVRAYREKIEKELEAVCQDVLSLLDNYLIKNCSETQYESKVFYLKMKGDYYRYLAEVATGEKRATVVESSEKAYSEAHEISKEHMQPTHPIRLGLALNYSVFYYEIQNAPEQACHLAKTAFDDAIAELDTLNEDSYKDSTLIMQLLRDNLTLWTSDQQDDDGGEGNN

| Structure (SMILES) | target | assay | test system | setting | EC50 [µM] |
| --- | --- | --- | --- | --- | --- |
| CC[C@H](C)[C@@H](C(=O)N[C@@H](CC(C)C)C(=O)N[C@@H](CO)C(=O)N[C@@H](CO)C(=O)N[C@H](C(=O)N[C@@H](CCC(=O)O)C(=O)N[C@H](C(=O)NCC(=O)N[C@@H](CO)C(=O)N[C@@H](CC(N)=O)C(=O)N[C@H](C(=O)N1C[C@H](O)C[C@H]1C(N)=O)[C@@H](C)O)C(C)C)[C@@H](C)O)N(C)C(=O)[C@H](C)NC(=O)CN(C)C(=O)[C@H](Cc1ccccc1)NC(=O)[C@H](CO)NC(=O)[C@H](CO)NC(=O)[C@H](CCCNC(=N)N)NC(=O)[C@H](CCC(N)=O)NC(=O)[C@H](CC(C)C)NC(=O)[C@H](Cc1ccccc1)NC(=O)[C@H](Cc1c[nH]cn1)NC(=O)[C@H](C)NC(=O)[C@H](CC(C)C)NC(=O)[C@H](CCCNC(=N)N)NC(=O)[C@H](CCC(=O)O)NC(=O)[C@@H](NC(=O)[C@H](C)NC(=O)[C@@H]1CCNC(=O)C[C@H](NC(=O)[C@H](CCCNC(=N)N)NC(=O)CC[C@H](NC(=O)CCCCCCCCCCCCCCCCCCC(=O)O)C(=O)O)C(=O)NCC(=O)N[C@@H]([C@@H](C)O)C(=O)N[C@@H](C)C(=O)N[C@@H]([C@@H](C)O)C(=O)N1)[C@@H](C)O | CALCR | cAMP, agonist |  |  | 0.0309 |
| Cc1ncc(CNc2nc(N3CC(CCOc4cc(-c5scnc5C)ccc4CNC(=O)[C@@H]4C[C@@H](O)CN4C(=O)[C@@H](NC(=O)C4(F)CC4)C(C)(C)C)C3)nc(N3CCC[C@H]3Cn3ccnn3)n2)c(N)n1 | VHL/BRD9 | ternary complex formation, NanoBiT | HEK293T | 2 h, with: MLN4924 2 µM | 2.98 |
| CC[C@H](C)[C@@H](C(=O)N[C@@H](CC(C)C)C(=O)N[C@@H](CO)C(=O)N[C@@H](CO)C(=O)N[C@H](C(=O)N[C@@H](CCC(=O)O)C(=O)N[C@H](C(=O)NCC(=O)N[C@@H](CO)C(=O)N[C@@H](CC(N)=O)C(=O)N[C@H](C(=O)N1C[C@H](O)C[C@H]1C(N)=O)[C@@H](C)O)C(C)C)[C@@H](C)O)N(C)C(=O)[C@H](C)NC(=O)CN(C)C(=O)[C@H](Cc1ccccc1)NC(=O)[C@H](CO)NC(=O)[C@H](CO)NC(=O)[C@H](CCCNC(=N)N)NC(=O)[C@H](CCC(N)=O)NC(=O)[C@H](CC(C)C)NC(=O)[C@H](Cc1ccccc1)NC(=O)[C@H](Cc1c[nH]cn1)NC(=O)[C@H](C)NC(=O)[C@H](CC(C)C)NC(=O)[C@H](CCCNC(=N)N)NC(=O)[C@H](CCC(=O)O)NC(=O)[C@@H](NC(=O)[C@H](C)NC(=O)[C@@H]1CCNC(=O)CC[C@H](NC(=O)[C@H](CCCNC(=N)N)NC(=O)CC[C@H](NC(=O)CCCCCCCCCCCCCCCCCCC(=O)O)C(=O)O)C(=O)NCC(=O)N[C@@H]([C@@H](C)O)C(=O)N[C@@H](C)C(=O)N[C@@H]([C@@H](C)O)C(=O)N1)[C@@H](C)O | CALCR | cAMP, agonist |  |  | 0.00692 |
| COc1ccc(C(=O)c2c(C(=O)NCCCN(C)C)oc3ccc(Cl)cc3c2=O)cc1OC | GHSR (Homo sapiens, UniProt Q92847, E197A) | intracellular Ca2+, agonist | HEK293T transiently transfected |  | 0.38 |
| CC(=O)NCC1CCCCN1c1nc(NCC2Cc3ccccc3O2)nc(N2CC3C(CCOc4cc(-c5scnc5C)ccc4CNC(=O)C4CC(O)CN4C(=O)C(NC(=O)C4(F)CC4)C(C)(C)C)C3C2)n1 (centres unmarked) | VHL/BRD9 | ternary complex formation, NanoBiT | HEK293T | 2 h, with: MLN4924 2 µM | 0.054 |
| CC[C@H](C)[C@@H](C(=O)N[C@@H](CC(C)C)C(=O)N[C@@H](CO)C(=O)N[C@@H](CO)C(=O)N[C@H](C(=O)N[C@@H](CCC(=O)O)C(=O)N[C@H](C(=O)NCC(=O)N[C@@H](CO)C(=O)N[C@@H](CC(N)=O)C(=O)N[C@H](C(=O)N1C[C@H](O)C[C@H]1C(N)=O)[C@@H](C)O)C(C)C)[C@@H](C)O)N(C)C(=O)[C@H](C)NC(=O)CN(C)C(=O)[C@H](Cc1ccccc1)NC(=O)[C@H](CO)NC(=O)[C@H](CO)NC(=O)[C@H](CCCNC(=N)N)NC(=O)[C@H](CCC(N)=O)NC(=O)[C@H](CC(C)C)NC(=O)[C@H](Cc1ccccc1)NC(=O)[C@H](Cc1c[nH]cn1)NC(=O)[C@H](C)NC(=O)[C@H](CC(C)C)NC(=O)[C@H](CCCNC(=N)N)NC(=O)[C@H](CCC(=O)O)NC(=O)[C@@H](NC(=O)[C@H](C)NC(=O)[C@@H]1CCC(=O)NCC[C@H](NC(=O)[C@H](CCCNC(=N)N)NC(=O)CC[C@H](NC(=O)CCCCCCCCCCCCCCCCCCC(=O)O)C(=O)O)C(=O)NCC(=O)N[C@@H]([C@@H](C)O)C(=O)N[C@@H](C)C(=O)N[C@@H]([C@@H](C)O)C(=O)N1)[C@@H](C)O | CALCR | cAMP, agonist |  |  | 0.0407 |
| CSCC[C@H](NC(=O)[C@H](CC(C)C)NC(=O)CNC(=O)[C@H](Cc1ccccc1)NC(=O)[C@H](Cc1ccccc1)NC(=O)[C@@H](N)CCC(N)=O)C(N)=O | TACR1 (Homo sapiens, UniProt P25103, Y287F) | agonist |  | concentration not given | 0.02 |
| CC(C)C[C@H](NC(=O)[C@H](CCCN)NC(=O)CNC(=O)[C@@H](NC(=O)[C@H](C)NC(=O)[C@@H]1CSCSC[C@H](NC(=O)CC[C@H](N)C(=O)O)C(=O)N[C@@H](CC(N)=O)C(=O)N[C@@H]([C@@H](C)O)C(=O)N[C@@H](C)C(=O)N[C@@H]([C@@H](C)O)C(=O)N1)[C@@H](C)O)C(=O)N[C@@H](C)C(=O)N[C@@H](CCC(=O)O)C(=O)N[C@@](C)(Cc1ccccc1)C(=O)N[C@@H](CC(C)C)C(=O)N[C@H](C(=O)N[C@@H](CCCNC(=N)N)C(=O)N[C@@H](CO)C(=O)N[C@@H](CO)C(=O)N[C@@H](CC(N)=O)C(=O)N(C)[C@@H](CC(N)=O)C(=O)N[C@@H](Cc1ccccc1)C(=O)NCC(=O)N1CCC[C@H]1C(=O)N[C@@H](CCCCNC(=O)CC[C@H](NC(=O)CC[C@H](NC(=O)CCCCCCCCCCCCCCCCCCC(=O)O)C(=O)O)C(=O)O)C(=O)N[C@@H](CC(C)C)C(=O)N1CCC[C@H]1C(=O)N1CCC[C@H]1C(=O)N[C@H](C(=O)N[C@@H](CCC(=O)O)C(=O)N[C@H](C(=O)NCC(=O)N[C@@H](CO)C(=O)N[C@@H](CC(N)=O)C(=O)N[C@H](C(=O)N[C@@H](Cc1ccc(O)cc1)C(N)=O)[C@@H](C)O)C(C)C)[C@@H](C)O)C(C)C | Calcitonin receptor (Rattus norvegicus, UniProt P32214) | cAMP, agonist, TR-FRET |  |  | 0.000243 |
| C#CCN1CCN(c2nc(N3CCC(CCOc4cc(-c5scnc5C)ccc4CNC(=O)[C@@H]4C[C@@H](O)CN4C(=O)[C@@H](NC(=O)C4(F)CC4)C(C)(C)C)CC3)nc(N3CCN(C(=O)C4CC4)C3)n2)CC1=O | VHL/BRD9 with Elongin B/C | ternary complex formation, AlphaScreen |  | with: 50 nM His-BRD9 and 20 nM biotin-VCB | 0.172 |
| CC[C@H]1CN(C(c2cccc(C(F)(F)F)c2)c2nc(C(F)(F)F)nn2C)[C@H](CC)CN1c1nc(=O)n(C)c2ccc(C#N)nc12 (some centres unmarked) | DGKZ (Homo sapiens, UniProt Q13574) | DGKζ-YFP translocation, high-content imaging | Jurkat |  | 0.004 |
| CC(=O)NCC1CCCCN1c1nc(N2CCN(c3nnc[nH]3)CC2)nc(N2CC3C(CCOc4cc(-c5scnc5C)ccc4CNC(=O)[C@@H]4C[C@@H](O)CN4C(=O)[C@@H](NC(=O)C4(F)CC4)C(C)(C)C)C3C2)n1 (some centres unmarked) | VHL/BRD9 with Elongin B/C | ternary complex formation, AlphaScreen |  | with: 50 nM His-BRD9 and 20 nM biotin-VCB | 0.226 |
| Nc1ncnc2c1ncn2[C@@H]1O[C@H](COP(=O)(O)OP(=O)(O)OC[C@H]2OC(O)[C@H](O)[C@@H]2O)[C@@H](O)[C@H]1OP(=O)(O)O (some centres unmarked) | TRPM2 (Nematostella vectensis, UniProt A7T1N0, E741C) | agonist |  |  | 0.13 ± 0.005 |
| COc1ccc2[nH]c(-c3cccc4ccccc34)c(CCNC(=O)CI)c2n1 | MTNR1B (Homo sapiens, UniProt P49286) | β-arrestin recruitment, agonist |  |  | 4.79 |
| CC[C@H](C)[C@@H](C(=O)N[C@@H](CC(C)C)C(=O)N[C@@H](CO)C(=O)N[C@@H](CO)C(=O)N[C@H](C(=O)N[C@@H](CCC(=O)O)C(=O)N[C@H](C(=O)NCC(=O)N[C@@H](CO)C(=O)N[C@@H](CC(N)=O)C(=O)N[C@H](C(=O)N1C[C@H](O)C[C@H]1C(N)=O)[C@@H](C)O)C(C)C)[C@@H](C)O)N(C)C(=O)[C@H](C)NC(=O)CN(C)C(=O)[C@H](Cc1ccccc1)NC(=O)[C@H](CO)NC(=O)[C@H](CO)NC(=O)[C@H](CCCNC(=N)N)NC(=O)[C@H](CCC(N)=O)NC(=O)[C@H](CC(C)C)NC(=O)[C@H](Cc1ccccc1)NC(=O)[C@H](Cc1c[nH]cn1)NC(=O)[C@H](C)NC(=O)[C@H](CC(C)C)NC(=O)[C@H](CCCNC(=N)N)NC(=O)[C@H](CCC(=O)O)NC(=O)[C@@H](NC(=O)[C@H](C)NC(=O)[C@@H]1CSSC[C@H](NC(=O)[C@H](CCCNC(=N)N)NC(=O)CC[C@H](NC(=O)CCCCCCCCCCCCCCCCCCC(=O)O)C(=O)O)C(=O)NCC(=O)N[C@@H]([C@@H](C)O)C(=O)N[C@@H](C)C(=O)N[C@@H]([C@@H](C)O)C(=O)N1)[C@@H](C)O | CALCR | cAMP, agonist |  |  | 0.000324 |
| O=C(Cc1ccc(OCc2ccccc2)cc1)NC1(C(=O)O)CCN(C(=O)c2ccc(-c3cccc(Cl)c3)cc2)CC1 | CHRM1 (Homo sapiens, UniProt P11229) | inositol phosphate, agonist |  |  | > 10 |
| CC[C@H](C)[C@@H](C(=O)N[C@@H](CC(C)C)C(=O)N[C@@H](CO)C(=O)N[C@@H](CO)C(=O)N[C@H](C(=O)N[C@@H](CCC(=O)O)C(=O)N[C@H](C(=O)NCC(=O)N[C@@H](CO)C(=O)NCC(=O)N[C@H](C(=O)N1C[C@H](O)C[C@H]1C(N)=O)[C@@H](C)O)C(C)C)[C@@H](C)O)N(C)C(=O)[C@H](C)NC(=O)CN(C)C(=O)[C@H](Cc1ccccc1)NC(=O)[C@H](CO)NC(=O)[C@H](CO)NC(=O)[C@H](CCCNC(=N)N)NC(=O)[C@H](CCC(N)=O)NC(=O)[C@H](CC(C)C)NC(=O)[C@H](Cc1ccccc1)NC(=O)[C@H](Cc1c[nH]cn1)NC(=O)[C@H](C)NC(=O)[C@H](CC(C)C)NC(=O)[C@H](CCCNC(=N)N)NC(=O)[C@H](CCC(N)=O)NC(=O)[C@@H](NC(=O)[C@H](C)NC(=O)[C@@H]1CSSC[C@H](NC(=O)[C@H](CCCNC(=N)N)NC(=O)CC[C@H](NC(=O)CCCCCCCCCCCCCCCCCCC(=O)O)C(=O)O)C(=O)N[C@@H](CC(N)=O)C(=O)N[C@@H]([C@@H](C)O)C(=O)N[C@@H](C)C(=O)N[C@@H]([C@@H](C)O)C(=O)N1)[C@@H](C)O | CALCR | cAMP, agonist |  |  | 0.000166 |
| CS(=O)(=O)Oc1cc(C=O)ccc1[N+](=O)[O-] | YWHAG/RELA, phospho-Ser45 p65 peptide (Homo sapiens, UniProt P61981+Q04206) | ternary complex formation, stabilizer, fluorescence anisotropy |  |  | > 1000 |
